Assay results gathered from unrelated publications.
Each line is one published result; not all experiments were run side by side. ± marks the error that the study gave.

| SMILES | assay | test system | setting | scale | measurement | value |
| --- | --- | --- | --- | --- | --- | --- |
| C[C@@H](Oc1ccc(S(C)(=O)=O)cc1C(=O)N1C[C@@H]2C[C@]2(c2cc(C(F)(F)F)on2)C1)C(F)(F)F |  | young humans, plasma | oral, 25 mg single dose, geometric mean |  | AUC(0-72 h) | 7.38 µM·h |
| Cc1cc(C)c(CNC(=O)c2cc(Cl)c3c(c2C)O[C@@](C)([C@H]2CC[C@H](N(C)C)CC2)O3)c(=O)[nH]1 | refers to: unbound drug | human | oral, 200 mg, cycle 1 day 15 |  | accumulation ratio of AUCtau | 1.27 |
| COC(=O)Nc1cc(C(=O)Nc2ccc(CN)cc2)cc2ccc(C(=N)N)cc12 |  | octanol/buffer | pH 11, urokinase ligand set |  | logP | 0.69 |
| CCCC(=O)N[C@@H](Cc1ccccc1)C(=O)N[C@@H](Cc1ccc2ccccc2c1)C(=O)N[C@@H](CCCNC(=N)N)C(=O)N[C@@H](CCCNC(=N)N)C(=O)N[C@@H](CCCNC(=N)N)C(=O)N[C@@H](CCCNC(=N)N)C(=O)N[C@@H](CC)C(=O)N[C@@H](CCCCNC(=S)Nc1ccc2c(c1)C(=O)OC21c2ccc(O)cc2Oc2cc(O)ccc21)C(N)=O |  | human serum | 37 °C |  | complete degradation time | ≤ 3 h |
| NC[C@@]1(CC(=O)O)[C@@H]2CC[C@H]3C[C@@H]2[C@@H]1C3 |  | human, moderate renal impairment, plasma | geometric mean |  | unbound Cmax | 367 ng/mL |
| CC1(C)C(/C=C/C2=C(Cl)C(=C/C=C3\N(CCCCCC(=O)O)c4ccccc4C3(C)C)/CCC2)=[N+](CCCCCC(=O)O)c2ccccc21 |  | methanol |  |  | emission maximum | 807 nm |
| Cn1nc2c(=O)n(C3CC3)ncc2c1[C@](N)(c1ccc(C(F)(F)F)c(Cl)c1)C1CC1 |  | rat Sprague-Dawley male, blood | intravenous, 1 mg/kg |  | CLint,u | 39.5 mL/min/kg |
| CCN(CC)CCNC(=O)c1c(C)[nH]c(/C=C2\C(=O)Nc3ccc(F)cc32)c1C |  | human, serum | 50 mg maintenance dose, 24 h post-dose |  | serum concentration | 52.9 ng/mL |
| Cn1cnc2c1c(=O)[nH]c(=O)n2C |  | human, both sexes, cerebrospinal fluid | dose not given, median |  | CSF concentration | 333 nM |
| CC(C)(C(=O)N1CCOc2c(C#N)cncc2C1)C(F)F |  | human, both sexes | oral, 20 mg single dose |  | subjects with myalgia TEAE | 0% |
| CC(C)n1c(Nc2cccnc2)nc2cnc(Nc3ccc(N4CCN(C)CC4)cc3)nc21 | refers to: LDL cholesterol increased | healthy male subjects | oral, 100 mg, study, with: itraconazole |  | subjects with adverse event | 0% |
| C[C@H](Oc1ccc(Br)cc1-c1ccon1)C(=O)O |  | human, plasma | 400 mg once daily, day 10 | baseline: day 1 | accumulation ratio (AUC) | 0.798 |
| CCCCOC(=O)N1CCN(C(=O)[C@H](CP(=O)(O)O)NC(=O)c2cc(N3CC[C@H](OC)C3)nc(-c3ccccc3)n2)CC1 |  | human | subcutaneous, 8 mg, 24 h post-dose | baseline: baseline | change in PR interval | -3.3 ± 10.8 ms |
| CNC(=O)c1ccc(-c2cnc3ncc(Cc4ccc5ncccc5c4)n3n2)cc1F |  | gastric cancer patients | oral, 600 mg twice daily, all grades RP2D expansion |  | ALT increased incidence | 11% |
| Cc1noc(C)c1Cn1cc(N2C(=O)CN(Cc3cccc(O)c3)C2=O)cn1 |  | pooled human liver microsomes | 50 µM, 30 min, pH 7.4 |  | remaining parent | 59 % peak area |
| Cc1cc(NC(=O)c2cccc(NC(=O)/C=C/CN(C)C)c2)ccc1Nc1nccc(-c2cccnc2)n1 | metabolic stability | Wistar rat, male, primary hepatocytes | 1 µM, 120 min |  | compound remaining | 52.4% |
| C[C@@H](N)C1CCN(S(=O)(=O)c2cccc3cnccc23)CC1 | refers to: Rash | healthy volunteers | 75 mg, fasted |  | TEAE incidence | 0% |
| C[C@H]1CN(C(=O)CC#N)[C@]12CCN(c1ncnc3[nH]ccc13)C2 |  | healthy human | oral, 3 mg single |  | subjects with Headache | 0% |
| Cn1cc(Nc2nccc(-c3ccc4c(c3)CN(C3COC3)CC[C@H]4NC(=O)c3cn(C(C)(C)C)nn3)n2)cn1 | refers to: CD4+ T cell count | human, clinical trial, whole blood | 150 mg twice daily, follow-up |  | percent change from baseline | 8.78% |
| CN1CCN(C(=O)CN(C)S(=O)(=O)c2ccc3ccccc3c2)CC1 |  | octanol/buffer | pH 11 |  | logP | 1.95 |

Repeated from above:
| SMILES | assay | test system | setting | scale | measurement | value |
| --- | --- | --- | --- | --- | --- | --- |
| Cn1cnc2c1c(=O)[nH]c(=O)n2C |  | human, both sexes, cerebrospinal fluid | dose not given, median |  | CSF concentration | 333 nM |
| NC[C@@]1(CC(=O)O)[C@@H]2CC[C@H]3C[C@@H]2[C@@H]1C3 |  | human, moderate renal impairment, plasma | geometric mean |  | unbound Cmax | 367 ng/mL |
| CC(C)(C(=O)N1CCOc2c(C#N)cncc2C1)C(F)F |  | human, both sexes | oral, 20 mg single dose |  | subjects with myalgia TEAE | 0% |
